Assay results collected from several papers.
A part holds a random share of what one study measured.

Block 1
Target: Interferon regulatory factor 7, full length, phosphomimetic (IRF7, Homo sapiens, UniProt Q92985, residues 1-503, S471D/S472D/S475D/S476D/S477D/S483D/S484D/S487D)
Sequence of UniProt Q92985 (whole entry, unmodified, looked up): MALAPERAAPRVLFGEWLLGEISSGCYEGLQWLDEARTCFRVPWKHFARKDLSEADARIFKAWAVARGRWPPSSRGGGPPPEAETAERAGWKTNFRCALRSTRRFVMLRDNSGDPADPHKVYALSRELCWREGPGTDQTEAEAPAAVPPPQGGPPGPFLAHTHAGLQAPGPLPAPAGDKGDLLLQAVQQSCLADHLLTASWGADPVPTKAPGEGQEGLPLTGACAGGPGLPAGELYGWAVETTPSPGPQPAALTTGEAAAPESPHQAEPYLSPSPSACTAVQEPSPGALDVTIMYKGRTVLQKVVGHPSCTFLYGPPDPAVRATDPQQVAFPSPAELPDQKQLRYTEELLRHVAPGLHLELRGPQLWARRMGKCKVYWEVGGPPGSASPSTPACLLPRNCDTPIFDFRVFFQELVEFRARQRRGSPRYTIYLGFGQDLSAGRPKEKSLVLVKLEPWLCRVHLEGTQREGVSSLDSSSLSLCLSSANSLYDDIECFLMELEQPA
Method: protein-binding microarray
Form: double-stranded DNA, one strand shown
Matrix: in vitro
Concentration: 2200 nM top
Notes: 60-bp whole probe
Added: salmon DNA 0.4 mg/ml
Reference: random background probes
Reading: higher = stronger binding
Measurement: fitted relative affinity
Constant ends, left off below: GCCTAGCAC … GTCTTGATTCGCTTGACGCTGCTG
GACGGTTTTCTTTTCCTGACGTGCTAG: 4.39 z-score
GACCGTCTCGGTCTCGGGACGTGCTAG: -0.0794 z-score
TCATCTTTCTGTTTTCTACTGTGCTAG: 5.43 z-score
GACGGTCTCGTTTTCCTGACGTGCTAG: 2.49 z-score
TTAGGCCTGGGGTTTCGGTTAGTGCTA: 2.19 z-score
TTAGGTCTCCGTCTCCTTTAGTGCTAG: 0.928 z-score
TCAAAACTAAGTTTATTACTGTGCTAG: -0.247 z-score
GACGATCTCAGACTGGCGACGTGCTAG: -0.0117 z-score
TTAGGTATCGACTTTCGGTAAGTGCTA: 1.99 z-score
TGCGGTTCAGATATAGGATAGTGCTAG: 0.303 z-score
GACGGACTGGGGTTTCGGGAGGTGCTA: -0.0687 z-score
GGAGTTTTCAGTCCTGGGATGTGCTAG: 1.05 z-score
TCATTTTTGCTTTCCTTACTGTGCTAG: 5.8 z-score
GACGAACTCGGGTTTCGAGACGTGCTA: 1.72 z-score
TCCCATTAAATTTTAATAACGTGCTAG: 0.278 z-score
TTAGGACTGCTTCTTCTTTAGTGCTAG: 0.433 z-score
TTCACTATTGCTTCCTCTTTGTGCTAG: 2.76 z-score
GACGGTTTCCTTTCACTGACGTGCTAG: 5.55 z-score
GACGAACTGAGTTTCGAGATGTGCTAG: 2.83 z-score
CGTCATTTCACAGTTAACCAGTGCTAG: 1.31 z-score
TCAACCTTCGAGTCTGCAACTGTGCTA: 0.871 z-score

Block 2
Target: Ras GTPase-activating protein-binding protein 1, C-terminal RGG region (G3BP1, Homo sapiens, UniProt Q13283)
Sequence of UniProt Q13283 (whole entry, looked up): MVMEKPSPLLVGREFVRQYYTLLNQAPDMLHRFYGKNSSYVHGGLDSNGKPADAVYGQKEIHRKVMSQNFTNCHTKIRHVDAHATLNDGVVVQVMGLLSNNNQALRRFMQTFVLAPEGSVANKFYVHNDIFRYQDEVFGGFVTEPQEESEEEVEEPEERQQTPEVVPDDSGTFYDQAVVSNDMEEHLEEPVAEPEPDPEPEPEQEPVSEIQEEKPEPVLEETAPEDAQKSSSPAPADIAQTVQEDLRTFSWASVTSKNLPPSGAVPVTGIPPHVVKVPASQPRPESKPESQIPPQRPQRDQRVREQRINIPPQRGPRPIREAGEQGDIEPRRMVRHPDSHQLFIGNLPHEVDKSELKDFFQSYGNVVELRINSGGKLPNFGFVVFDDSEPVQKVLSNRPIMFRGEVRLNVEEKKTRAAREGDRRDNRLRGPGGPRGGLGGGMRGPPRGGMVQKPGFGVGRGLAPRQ
Method: RNA Bind-n-Seq
Form: RNA
Matrix: in vitro
Concentration: 1 µM
Notes: whole 134-nt RNA, ends assumed
Added: 150 mM KCl
Reference: input library
Reading: higher = stronger binding
Measurement: log2 enrichment
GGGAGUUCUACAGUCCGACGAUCUGGCCCUGGUGGCAUGCGGGGAGGAAGAGGUGGCCUCAUGGAUCGUGGUGGUCCAGGUGGAAUGUUCAGAGGUGGCCGUGGUGGAGACAGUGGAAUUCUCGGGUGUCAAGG: 1.96
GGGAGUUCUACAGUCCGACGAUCCACAGACAACACGCACCCACACAGACACAGAGGGAAGGGGUUGGGAUGGGGACAGGGUGCACAGCGGGGCGGGGUAGGACCCCAGCCCCUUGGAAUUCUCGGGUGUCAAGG: -0.215
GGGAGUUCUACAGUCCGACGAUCCACAGACAACACGCACCCACACAGACACAGAGGGAAGGGGUUGGGAUGGGGACAGGGUGCACAGCAGGGCGGGGUAGGACCCCAGCCUCUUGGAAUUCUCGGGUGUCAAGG: -0.907
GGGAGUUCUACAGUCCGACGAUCUAACUUUAGAGGAGGAUCUGAUAGAUAUGGCAGUGGACGUGGAUUUGGGGAUGGCUAUAAUGGGUAUGGAGGAGGACCUGGAGGUGGCAAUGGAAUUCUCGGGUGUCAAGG: -1.48
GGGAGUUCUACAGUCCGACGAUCGUCCUGUGCUACACAUCGUAUGUACCGAAUCGGGGAGGGGUUUGGGGAAAAAAAGGGGAAAGUAUUAUGUUACGCCGUUCGGAUCUGCACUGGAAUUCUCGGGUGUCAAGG: 1.16
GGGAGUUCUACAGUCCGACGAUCGCAGGAAGUAAAAACAAAUGGAAAUGCUUCGGAUAGUGGCAGGGGUGGGGGUUGCUAAGGAAAGGGUGGGAUGGGAGUGGGUAAAGGGUUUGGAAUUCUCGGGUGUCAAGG: 0.63
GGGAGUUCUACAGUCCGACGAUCUAACUUUAGAGGAGGAUCUGAUGGAUAUGGCAGUGGACGUGGAUUUGGGGAUGGCUAUAAUGGGUAUGGAGGAGGAGCUGGAGGUGGCAAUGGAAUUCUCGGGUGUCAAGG: 0.0175
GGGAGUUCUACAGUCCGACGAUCCCUCAAGUCCUGUGCUACACAUCGUAUGUACCGAAUCGGAAGGGAAGGAAGGGAAAGUAUUAUGUUACGCCGUUCGGAUCUGCACUUCCAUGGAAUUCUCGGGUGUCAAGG: -1.5
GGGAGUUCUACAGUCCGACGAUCUGGGAGGUGGAUUUUGUUUAUUUUUUUAGCUCAUUUCCAGGGGUGGGGAUUUUUUUUUAAUAUGUGUCAUGAAUAAAGUUGUUUUUGAAAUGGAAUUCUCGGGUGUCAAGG: 2.68
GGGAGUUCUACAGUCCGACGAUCACCAUGCAGGUGGGCAUCUUUGGGAAGUUGGGCAAGGGGGGGAUAGGGAGGGGGGUAACACUUUGGGAACAGGUGGUCCCAGGUCGUUUCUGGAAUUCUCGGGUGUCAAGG: -1.32

Block 3
Target: Histone acetyltransferase KAT6A, winged helix 1, GST fusion (KAT6A, Homo sapiens, UniProt Q92794, residues 1-85)
Method: protein binding microarray
Form: double-stranded DNA, one strand shown
Matrix: in vitro
Concentration: not given
Notes: 8-mer, flanks averaged, mean of 2 arrays, mostly near background
Reference: not given
Reading: higher = stronger binding
Measurement: E-score
Target sequence (chain): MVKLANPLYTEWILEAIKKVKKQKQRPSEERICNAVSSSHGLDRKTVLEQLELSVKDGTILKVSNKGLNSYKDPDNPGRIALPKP
AGGCCTGC: 0.0232
GCCGTCTA: 0.323
ATGCAGAG: -0.211
CTCTAGCA: -0.352
ATACATAC: -0.0473
TCACATGA: -0.175
CTGCCTCA: -0.113
CCCGAATC: -0.0341
AGCAATTA: 0.0811
CTCAGAGA: -0.0487
ATGGAGTA: -0.0712
CAACACAG: -0.189
CTCACAGC: -0.233
ACTTTCTC: -0.0192
CATTCGCA: 0.0555
CTTTTGTA: -0.186
ATAATCCC: -0.0454
CGAGCGTA: 0.175

Block 4
Target: TAR DNA-binding protein 43, full length, His tag (TARDBP, Homo sapiens, UniProt Q13148, residues 1-414)
Method: RNA Bind-n-Seq
Form: RNA
Matrix: in vitro
Concentration: 20 nM
Notes: 6-mer, flanks averaged, single round
Added: 150 mM KCl
Reference: input library
Reading: higher = stronger binding
Measurement: 6-mer enrichment (R)
ACGGCG: 1.62
CCUGGC: 0.813
AUACAU: 0.582
ACUCUC: 0.568
UAUCUG: 0.61
UCCGGU: 0.748
ACCCGA: 0.737
UCGCUG: 0.76
UGCCUG: 0.832
ACAGCG: 1.06
UGAGCA: 0.856
GUGGCG: 3.43
CAAUCC: 0.574
AGCCAG: 0.936
AUGCUA: 0.654
CCCAGU: 0.675
UGGAAA: 0.867
CACCCU: 0.673
GACCGG: 1.71
AUAAGG: 1.04
AGAUGC: 0.8
CGGACU: 0.903
GUCAUU: 0.615
UUAGGA: 0.759
UAGGCU: 0.742

Block 5
Target: Cyclic AMP-responsive element-binding protein 1 (CREB1, Homo sapiens, UniProt P16220, residues 1-327, full length assumed)
Sequence of UniProt P16220 (whole entry, looked up): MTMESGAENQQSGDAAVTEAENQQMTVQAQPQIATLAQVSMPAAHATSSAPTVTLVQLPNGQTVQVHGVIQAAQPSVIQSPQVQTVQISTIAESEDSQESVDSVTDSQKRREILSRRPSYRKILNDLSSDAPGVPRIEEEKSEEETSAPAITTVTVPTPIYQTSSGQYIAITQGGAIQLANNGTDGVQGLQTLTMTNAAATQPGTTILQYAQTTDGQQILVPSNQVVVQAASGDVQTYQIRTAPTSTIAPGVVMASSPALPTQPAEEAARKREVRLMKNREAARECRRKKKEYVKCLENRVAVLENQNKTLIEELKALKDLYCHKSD
Method: protein-binding microarray
Form: double-stranded DNA, one strand shown
Matrix: in vitro
Concentration: not given
Notes: k-mer, scored over probes, only values ≥0.25
Reading: higher = stronger binding
Measurement: E-score
AATATGG: 0.256
ATCGTCA: 0.384
GACGTAC: 0.342
ATTACAA: 0.256
CAATATA: 0.259
GATGTCA: 0.316
TAACGTA: 0.307
TAAATGA: 0.262
AGCGTCA: 0.426
CTACGTA: 0.412
ATACGAT: 0.266
ATGTAAT: 0.261
ATATGAC: 0.306
GCGTGAC: 0.283
ATTACAG: 0.254
GTCATTA: 0.27
ATTTAAC: 0.262
ACGTGAG: 0.254
ACGTTGA: 0.306
GTAATCA: 0.252
CGTTACA: 0.255

Some of these lines once more (block 2):
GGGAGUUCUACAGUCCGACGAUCUAACUUUAGAGGAGGAUCUGAUGGAUAUGGCAGUGGACGUGGAUUUGGGGAUGGCUAUAAUGGGUAUGGAGGAGGAGCUGGAGGUGGCAAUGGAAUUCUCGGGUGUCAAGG: 0.0175
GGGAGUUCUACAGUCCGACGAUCUGGCCCUGGUGGCAUGCGGGGAGGAAGAGGUGGCCUCAUGGAUCGUGGUGGUCCAGGUGGAAUGUUCAGAGGUGGCCGUGGUGGAGACAGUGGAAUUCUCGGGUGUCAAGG: 1.96
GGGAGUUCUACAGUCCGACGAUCCACAGACAACACGCACCCACACAGACACAGAGGGAAGGGGUUGGGAUGGGGACAGGGUGCACAGCAGGGCGGGGUAGGACCCCAGCCUCUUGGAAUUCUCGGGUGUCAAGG: -0.907
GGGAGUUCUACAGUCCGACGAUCCCUCAAGUCCUGUGCUACACAUCGUAUGUACCGAAUCGGAAGGGAAGGAAGGGAAAGUAUUAUGUUACGCCGUUCGGAUCUGCACUUCCAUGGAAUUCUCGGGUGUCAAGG: -1.5
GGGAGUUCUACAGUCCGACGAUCGCAGGAAGUAAAAACAAAUGGAAAUGCUUCGGAUAGUGGCAGGGGUGGGGGUUGCUAAGGAAAGGGUGGGAUGGGAGUGGGUAAAGGGUUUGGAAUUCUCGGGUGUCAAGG: 0.63
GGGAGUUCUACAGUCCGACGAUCCACAGACAACACGCACCCACACAGACACAGAGGGAAGGGGUUGGGAUGGGGACAGGGUGCACAGCGGGGCGGGGUAGGACCCCAGCCCCUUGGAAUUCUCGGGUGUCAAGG: -0.215
